{"data": "Measurements gathered from unrelated publications", "note": "Compare with care: the assays were run in different laboratories. “And” joins repeats or separate records; there may be more than shown."}
{"Compound": "C[C@]12C[C@H](c3ccc(S(C)(=O)=O)cc3)[C@@H]3C4=C(CC[C@H]3[C@@H]1CC[C@@]2(O)C(F)(F)C(F)(F)F)C(=O)[C@H](O)CC4", "test system": "human, plasma", "conditions": "oral, 5 mg multiple doses, day 28", "half-life": "124 h"}
{"Compound": "COc1cc2c(cc1OC)[C@H]1C[C@@H](O)[C@H](CC(C)C)CN1CC2", "test": "refers to: compound", "test system": "human, male, plasma", "conditions": "oral, 25 mg [14C]-tetrabenazine, geometric mean", "half-life": "5.68 h"}
{"Compound": "CCC(CC)CNC(=N)NC(=N)NCCCCCCNC(=N)NC(=N)NCC(CC)CC", "test": "metabolic stability", "test system": "dog, hepatocytes", "conditions": "1 µM", "half-life": "2.53 h"}
{"Compound": "C/C(N)=N/C(=N\\S(=O)(=O)c1ccc(C(F)(F)F)cc1)N1C[C@H](c2ccccc2)C(c2ccc(Cl)cc2)=N1", "test system": "male C57BL/6 mouse, lung", "conditions": "intravenous, 10 mg/kg", "half-life": "1.4 h"}
{"Compound": "O=C(c1ccccc1)N1C(c2ccc(OCC3CCN(CCCF)C3)cc2)c2ccc(O)cc2CC12CC2 (stereo not shown)", "test system": "C57BL/6J mouse, plasma", "conditions": "oral, 25 mg/kg", "half-life": "3.16 h and 5.07 h"}
{"Compound": "Cl.NCc1ccc2c(c1)CN(C1CCC(=O)NC1=O)C2=O (stereo not shown)", "test system": "human, mixed sex, whole blood", "half-life": "> 3 h"}
{"Compound": "C=CC(=O)N1CCCC(n2c(=O)c3ncccc3n(Cc3ccc(Oc4ccccc4)cc3)c2=O)C1 (stereo not shown)", "test": "metabolic stability", "test system": "male beagle dog, hepatocytes", "conditions": "1 µM", "half-life": "0.813 h"}
{"Compound": "C[C@]12C[C@H](c3ccc(S(C)(=O)=O)cc3)C3=C4CCC(=O)C=C4CC[C@H]3[C@@H]1CC[C@@]2(O)C(F)(F)C(F)(F)F", "test system": "human, plasma", "conditions": "oral, 5 mg multiple doses, day 28", "half-life": "51.7 h"}
{"Compound": "CNC(=O)C1CCCN(C(=O)C2CC3CCC2N3C(=O)[C@@H]2C[C@@H](O)CN2C(=O)NCc2cccc(Cl)c2F)C1 (mixture of isomers)", "test": "metabolic stability", "test system": "dog, liver microsomes", "half-life": "3.88 h"}
{"Compound": "CCCCCCCOc1ccc(CC[C@](N)(CO)COP(=O)(O)O)cc1C(F)(F)F", "test system": "healthy human males, plasma", "conditions": "oral, 0.5 mg, day 21", "half-life": "376 h"}
{"note": "A few entries again:"}
{"Compound": "CNC(=O)C1CCCN(C(=O)C2CC3CCC2N3C(=O)[C@@H]2C[C@@H](O)CN2C(=O)NCc2cccc(Cl)c2F)C1 (mixture of isomers)", "test": "metabolic stability", "test system": "dog, liver microsomes", "half-life": "3.88 h"}
